Assay results from different studies.
Protocols differ between the studies behind these lines. ± marks the error that the study gave.

Compound | test | test system | setting | terminal half-life [h]
CN1C(=O)[C@@H](NC(=O)c2nnc(Cc3ccccc3)[nH]2)COc2cccnc21 |  | healthy human, fasted, plasma | oral, 200 mg single dose, geometric mean | 6.34
Cc1cc(-c2nccc3c2ccn3CC(=O)Nc2ccc(-c3cnccn3)cn2)ccn1 |  | human, plasma | oral, 5 mg once daily, day 1, geometric mean | 9.77
Cc1cc(-c2nnc(N)nc2-c2ccc(F)cc2)cc(Cl)n1 |  | human patients, plasma | oral, 75 mg nanosuspension once daily, multiple doses, arithmetic mean | 11.2
C[C@@]1(c2cc(NC(=O)c3ccc(C#N)cn3)ccc2F)C=CSC(N)=N1 |  | elderly humans, both sexes, plasma | oral, 3 mg single dose, mean | 13.9
Cc1cc(Nc2ccc(S(F)(F)(F)(F)F)cc2)n2nc(C(C)(F)F)nc2n1 | LC-MS/MS | human vivax malaria patients, plasma | oral, 400 mg, mean | 115
COc1nnc2ccc(N3CCC(c4ccc(OCCN5CCN(C)C(=O)[C@H]5C)cc4)CC3)nn12 |  | human, plasma | oral, 5 mg once daily, single dose, monotherapy | 3.38
C[C@@H](c1ccc2nccn2c1)n1nnc2ncc(-c3cnn(C)c3)nc21 |  | human, plasma | oral, 300 mg, cycle 1 day 1, single dose | 3.14
CN(CC#N)C(=O)C[C@H](Nc1nc2ccccc2[nH]1)c1cccc(C(F)(F)F)c1 |  | human | intravenous infusion, 3 mg/kg, 1 mg/mL formulation | 6.12 ± 0.37

Some of these lines once more:
Compound | test | test system | setting | terminal half-life [h]
Cc1cc(Nc2ccc(S(F)(F)(F)(F)F)cc2)n2nc(C(C)(F)F)nc2n1 | LC-MS/MS | human vivax malaria patients, plasma | oral, 400 mg, mean | 115
